# Measurements gathered from unrelated publications.
# Numbered parts are unrelated; each lists some results of a single study.
# UniProt P42336, sequence (whole entry, unmodified, looked up): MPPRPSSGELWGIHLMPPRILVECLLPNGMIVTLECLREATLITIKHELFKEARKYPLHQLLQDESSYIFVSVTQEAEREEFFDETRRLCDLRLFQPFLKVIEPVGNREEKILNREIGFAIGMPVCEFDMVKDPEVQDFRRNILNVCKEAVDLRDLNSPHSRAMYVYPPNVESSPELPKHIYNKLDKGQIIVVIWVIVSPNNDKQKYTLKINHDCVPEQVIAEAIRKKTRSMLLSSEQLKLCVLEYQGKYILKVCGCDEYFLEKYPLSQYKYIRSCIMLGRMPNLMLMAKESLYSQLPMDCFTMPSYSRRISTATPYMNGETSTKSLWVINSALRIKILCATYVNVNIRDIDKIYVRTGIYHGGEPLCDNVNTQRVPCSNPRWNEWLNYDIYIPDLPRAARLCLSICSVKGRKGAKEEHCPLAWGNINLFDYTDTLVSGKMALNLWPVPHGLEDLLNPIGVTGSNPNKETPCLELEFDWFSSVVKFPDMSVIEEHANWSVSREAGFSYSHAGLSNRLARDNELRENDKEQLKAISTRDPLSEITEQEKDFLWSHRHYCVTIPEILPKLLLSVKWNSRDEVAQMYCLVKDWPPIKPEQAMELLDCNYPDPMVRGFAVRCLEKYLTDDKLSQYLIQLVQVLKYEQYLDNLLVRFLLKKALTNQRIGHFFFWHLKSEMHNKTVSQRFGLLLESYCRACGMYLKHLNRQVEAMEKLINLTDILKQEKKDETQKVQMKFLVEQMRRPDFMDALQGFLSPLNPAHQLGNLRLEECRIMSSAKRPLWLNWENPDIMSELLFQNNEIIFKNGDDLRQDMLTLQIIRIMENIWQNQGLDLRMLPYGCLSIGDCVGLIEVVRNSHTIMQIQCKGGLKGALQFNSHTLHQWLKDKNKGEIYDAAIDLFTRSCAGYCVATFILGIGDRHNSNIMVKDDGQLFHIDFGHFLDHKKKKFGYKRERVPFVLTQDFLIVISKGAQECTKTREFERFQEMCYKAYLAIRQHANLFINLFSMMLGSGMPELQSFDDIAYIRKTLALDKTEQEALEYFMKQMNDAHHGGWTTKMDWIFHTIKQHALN
# UniProt O15264, sequence (whole entry, looked up): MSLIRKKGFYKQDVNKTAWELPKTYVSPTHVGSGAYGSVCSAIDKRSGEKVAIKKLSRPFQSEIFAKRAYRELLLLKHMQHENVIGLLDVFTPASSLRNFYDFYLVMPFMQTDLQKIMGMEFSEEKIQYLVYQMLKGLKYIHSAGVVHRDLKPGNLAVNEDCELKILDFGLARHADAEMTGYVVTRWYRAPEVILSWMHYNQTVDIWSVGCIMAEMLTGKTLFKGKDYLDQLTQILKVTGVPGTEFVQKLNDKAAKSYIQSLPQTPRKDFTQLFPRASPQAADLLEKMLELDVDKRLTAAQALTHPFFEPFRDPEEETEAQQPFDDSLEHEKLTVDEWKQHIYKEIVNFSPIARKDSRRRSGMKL
# UniProt Q92630, sequence (whole entry, looked up): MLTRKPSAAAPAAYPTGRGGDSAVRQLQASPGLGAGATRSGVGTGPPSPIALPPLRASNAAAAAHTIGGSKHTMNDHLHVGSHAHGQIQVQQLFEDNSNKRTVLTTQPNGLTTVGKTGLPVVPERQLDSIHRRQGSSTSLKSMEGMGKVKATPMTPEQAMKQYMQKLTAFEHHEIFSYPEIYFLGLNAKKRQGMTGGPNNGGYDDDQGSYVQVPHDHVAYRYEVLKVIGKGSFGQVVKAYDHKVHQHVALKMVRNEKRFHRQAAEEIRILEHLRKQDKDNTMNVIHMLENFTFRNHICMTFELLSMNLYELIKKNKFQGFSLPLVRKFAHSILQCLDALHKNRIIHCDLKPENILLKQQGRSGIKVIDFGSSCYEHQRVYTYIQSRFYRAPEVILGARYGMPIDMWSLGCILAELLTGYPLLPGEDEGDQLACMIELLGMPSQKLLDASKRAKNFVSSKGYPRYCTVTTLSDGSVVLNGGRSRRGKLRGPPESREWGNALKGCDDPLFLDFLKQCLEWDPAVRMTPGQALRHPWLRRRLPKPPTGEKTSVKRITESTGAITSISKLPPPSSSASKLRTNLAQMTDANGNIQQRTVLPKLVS
# UniProt P23458, sequence (whole entry, looked up): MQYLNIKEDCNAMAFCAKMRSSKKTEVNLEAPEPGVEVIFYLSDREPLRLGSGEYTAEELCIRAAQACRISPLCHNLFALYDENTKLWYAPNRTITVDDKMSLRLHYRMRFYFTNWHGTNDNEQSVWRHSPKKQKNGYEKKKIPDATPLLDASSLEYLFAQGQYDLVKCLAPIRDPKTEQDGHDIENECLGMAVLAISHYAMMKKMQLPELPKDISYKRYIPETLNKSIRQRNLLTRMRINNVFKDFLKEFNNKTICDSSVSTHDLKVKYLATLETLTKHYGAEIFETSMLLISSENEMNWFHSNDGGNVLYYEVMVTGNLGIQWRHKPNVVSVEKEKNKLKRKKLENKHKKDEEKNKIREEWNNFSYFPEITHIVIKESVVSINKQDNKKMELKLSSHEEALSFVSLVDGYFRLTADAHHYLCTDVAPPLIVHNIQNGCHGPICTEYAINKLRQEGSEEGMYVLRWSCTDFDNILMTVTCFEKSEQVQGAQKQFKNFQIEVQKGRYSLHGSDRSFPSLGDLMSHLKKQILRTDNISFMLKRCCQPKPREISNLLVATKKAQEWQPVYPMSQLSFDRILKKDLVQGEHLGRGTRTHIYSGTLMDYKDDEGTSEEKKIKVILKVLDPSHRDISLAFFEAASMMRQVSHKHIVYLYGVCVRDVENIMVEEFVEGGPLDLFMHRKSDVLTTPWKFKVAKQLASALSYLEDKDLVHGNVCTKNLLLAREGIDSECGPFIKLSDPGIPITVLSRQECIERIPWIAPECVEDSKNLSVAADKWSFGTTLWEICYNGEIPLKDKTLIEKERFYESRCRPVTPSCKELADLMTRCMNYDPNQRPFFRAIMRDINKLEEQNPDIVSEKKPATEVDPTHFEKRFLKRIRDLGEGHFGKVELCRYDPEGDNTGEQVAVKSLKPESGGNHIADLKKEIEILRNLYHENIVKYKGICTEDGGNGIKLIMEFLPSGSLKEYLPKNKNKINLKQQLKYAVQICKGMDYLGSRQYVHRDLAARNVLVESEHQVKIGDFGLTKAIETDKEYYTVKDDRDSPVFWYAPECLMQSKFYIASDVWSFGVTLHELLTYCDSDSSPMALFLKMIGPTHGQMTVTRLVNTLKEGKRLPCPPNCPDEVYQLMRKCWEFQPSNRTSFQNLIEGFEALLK
# UniProt O96013, sequence (whole entry, looked up): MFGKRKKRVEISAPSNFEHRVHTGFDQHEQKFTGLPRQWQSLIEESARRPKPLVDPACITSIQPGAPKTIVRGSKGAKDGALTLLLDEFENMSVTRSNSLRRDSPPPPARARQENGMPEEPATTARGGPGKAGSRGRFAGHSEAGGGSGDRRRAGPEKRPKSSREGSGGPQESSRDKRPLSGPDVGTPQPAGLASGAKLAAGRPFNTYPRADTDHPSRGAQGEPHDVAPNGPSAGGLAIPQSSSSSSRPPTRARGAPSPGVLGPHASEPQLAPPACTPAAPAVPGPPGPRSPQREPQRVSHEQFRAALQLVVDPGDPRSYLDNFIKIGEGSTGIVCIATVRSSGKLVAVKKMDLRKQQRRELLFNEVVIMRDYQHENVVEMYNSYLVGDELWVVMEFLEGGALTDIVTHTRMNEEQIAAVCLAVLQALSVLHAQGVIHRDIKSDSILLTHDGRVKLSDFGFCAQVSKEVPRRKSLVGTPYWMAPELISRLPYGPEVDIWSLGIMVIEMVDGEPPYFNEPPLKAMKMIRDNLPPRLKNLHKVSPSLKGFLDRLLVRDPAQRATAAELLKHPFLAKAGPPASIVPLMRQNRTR
# UniProt Q96PY6, sequence (whole entry, looked up): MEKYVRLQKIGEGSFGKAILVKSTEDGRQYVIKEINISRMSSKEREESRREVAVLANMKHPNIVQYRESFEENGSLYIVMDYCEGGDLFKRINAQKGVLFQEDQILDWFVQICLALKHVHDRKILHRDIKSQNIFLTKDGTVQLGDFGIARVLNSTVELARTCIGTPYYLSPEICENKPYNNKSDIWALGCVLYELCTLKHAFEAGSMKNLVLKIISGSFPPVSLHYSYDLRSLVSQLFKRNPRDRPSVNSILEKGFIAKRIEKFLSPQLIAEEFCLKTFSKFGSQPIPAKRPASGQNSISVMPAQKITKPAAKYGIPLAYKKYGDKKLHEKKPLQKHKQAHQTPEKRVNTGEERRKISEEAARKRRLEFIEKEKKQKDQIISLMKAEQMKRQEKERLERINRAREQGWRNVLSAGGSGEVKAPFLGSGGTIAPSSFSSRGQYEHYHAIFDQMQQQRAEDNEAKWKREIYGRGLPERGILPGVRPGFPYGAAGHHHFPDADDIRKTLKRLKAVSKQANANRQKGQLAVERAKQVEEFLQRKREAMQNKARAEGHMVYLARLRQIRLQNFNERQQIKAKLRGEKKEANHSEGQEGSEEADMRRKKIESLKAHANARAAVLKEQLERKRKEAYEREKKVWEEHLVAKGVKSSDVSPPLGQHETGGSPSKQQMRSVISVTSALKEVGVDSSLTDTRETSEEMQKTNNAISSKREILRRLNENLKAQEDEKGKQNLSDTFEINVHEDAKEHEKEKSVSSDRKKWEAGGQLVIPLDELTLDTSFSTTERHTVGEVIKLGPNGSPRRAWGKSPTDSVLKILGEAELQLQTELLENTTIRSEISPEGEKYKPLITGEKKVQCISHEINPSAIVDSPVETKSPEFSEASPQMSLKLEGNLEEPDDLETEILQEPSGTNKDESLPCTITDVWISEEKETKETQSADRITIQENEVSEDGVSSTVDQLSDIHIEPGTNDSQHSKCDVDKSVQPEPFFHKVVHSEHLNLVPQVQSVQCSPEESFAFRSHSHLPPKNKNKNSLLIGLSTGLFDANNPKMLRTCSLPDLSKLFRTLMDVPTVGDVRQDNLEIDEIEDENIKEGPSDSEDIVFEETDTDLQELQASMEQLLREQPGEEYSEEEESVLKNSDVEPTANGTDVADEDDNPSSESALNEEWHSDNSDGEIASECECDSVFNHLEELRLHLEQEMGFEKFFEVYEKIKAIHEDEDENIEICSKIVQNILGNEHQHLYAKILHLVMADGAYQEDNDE

# Study 1
# Structure (SMILES): CCOc1cc2ncnc(Nc3cccc(Br)c3)c2cc1OCC
# Observed: enzyme activity
# Mode: inhibitor
# Concentration: 0.5 µM
# Relative to: control
target,remaining activity [%]
"TAOK1 (Homo sapiens, UniProt Q7L7X3)",99.9
"RAF1 (Homo sapiens, UniProt P04049)",91.6
"SGK3 (Homo sapiens, UniProt Q96BR1)",96.7
"VRK1 (Homo sapiens, UniProt Q99986)",101
"ACVR1 (Homo sapiens, UniProt Q04771)",97.1
"TNK2 (Homo sapiens, UniProt Q07912)",58.8
"PRKD3 (Homo sapiens, UniProt O94806)",95.4
"PHKG2 (Homo sapiens, UniProt P15735)",101
"INSRR (Homo sapiens, UniProt P14616)",88.8
"HCK (Homo sapiens, UniProt P08631)",59.4
"DSTYK (Homo sapiens, UniProt Q6XUX3)",101
"DYRK2 (Homo sapiens, UniProt Q92630)",88.8
"RIPK2 (Homo sapiens, UniProt O43353)",39.8
"ULK1 (Homo sapiens, UniProt O75385)",98.8
"NTRK2 (Homo sapiens, UniProt Q16620)",105
"PLK1 (Homo sapiens, UniProt P53350)",93.6
"MAP3K9 (Homo sapiens, UniProt P80192)",96.1
"PDGFRB (Homo sapiens, UniProt P09619)",94.8
"FGFR2 (Homo sapiens, UniProt P21802)",96.3
"MAP4K5 (Homo sapiens, UniProt Q9Y4K4)",47.7

# Study 2
# Compound: CC(=O)N1CCC(c2ccc(C(=O)NC(=N)N)cc2C(F)(F)F)CC1
# Technique: competition with immobilised ligand
# Concentration: 1 µM
target,test,remaining binding
"PIK3CA (Homo sapiens, UniProt P42336)",cell-free assay,100%
"Ribosomal protein S6 kinase alpha-5, N-terminal kinase domain (RPS6KA5, Homo sapiens, UniProt O75582)",cell-free assay,100%
"AKT3 (Homo sapiens, UniProt Q9Y243)",cell-free assay,100%
"NIM1K (Homo sapiens, UniProt Q8IY84)",cell-free assay,100%
"MST1R (Homo sapiens, UniProt Q04912)",cell-free assay,97%
"IRAK4 (Homo sapiens, UniProt Q9NWZ3)",cell-free assay,100%
"Tyrosine-protein kinase JAK1, JH1 (JAK1, Homo sapiens, UniProt P23458)",cell-free assay,100%
"OXSR1 (Homo sapiens, UniProt O95747)",cell-free assay,100%
"PHKG1 (Homo sapiens, UniProt Q16816)",cell-free assay,100%
"MAPK13 (Homo sapiens, UniProt O15264)",cell-free assay,83%
"EPHB4 (Homo sapiens, UniProt P54760)",cell-free assay,100%
"MAPK7 (Homo sapiens, UniProt Q13164)",cell-free assay,100%
"Tyrosine-protein kinase ABL1, phosphorylated (ABL1, Homo sapiens, UniProt P00519, E255K)",binding,100%
"CDK8 (Homo sapiens, UniProt P49336)",cell-free assay,100%
"PAK4 (Homo sapiens, UniProt O96013)",cell-free assay,100%
"ERBB2 (Homo sapiens, UniProt P04626)",cell-free assay,92%
"TAOK2 (Homo sapiens, UniProt Q9UL54)",cell-free assay,94%
"MTOR (Homo sapiens, UniProt P42345)",cell-free assay,100%
"RET (Homo sapiens, UniProt P07949)",cell-free assay,100%
"NEK9 (Homo sapiens, UniProt Q8TD19)",cell-free assay,100%
"NEK1 (Homo sapiens, UniProt Q96PY6)",cell-free assay,100%
"MAPK15 (Homo sapiens, UniProt Q8TD08)",cell-free assay,100%
"PIK3CA (Homo sapiens, UniProt P42336, C420R)",cell-free assay,100%
"EPHA3 (Homo sapiens, UniProt P29320)",cell-free assay,100%
"MAP3K2 (Homo sapiens, UniProt Q9Y2U5)",cell-free assay,100%

# Study 3
# SMILES: CC(C)n1cnc(-c2ccc(F)cc2)c1-c1ncc(C(=O)Nc2ccc(N3CCN(C)CC3)cc2)[nH]1
# Technique: phase 2a trial
# Species: idiopathic pulmonary fibrosis patients
setting,patients with nasopharyngitis
"30 mg once daily, grade 1 emergent event",0%
"all arms pooled, grade 4 emergent event",0%
"all arms pooled, grade 3 emergent event",0%
"60 mg once daily, grade 5 emergent event",0%
"30 mg once daily, grade 3 emergent event",0%
"60 mg once daily, grade 1 emergent event",0%
"all arms pooled, grade 5 emergent event",0%
"60 mg once daily, grade 2 emergent event",0%
"30 mg once daily, grade 2 emergent event",0%

# Study 4
# Compound: CC(=O)N[C@@H](Cc1c[nH]c2ccccc12)C(=O)N[C@@H](CCC(=O)C=[N+]=[N-])C(=O)OC(C)C
# Concentration: 5 µM
system,setting,remaining compound [%]
"mouse, EL4 tumour homogenate","0.05 h, together with: pepstatin A 1.0 µM",0.16
mouse intestinal homogenate,"0.05 h, together with: bestatin 10 µM",1.4
mouse EL4 tumour homogenate,"0 h, together with: PMSF 1.0 mM",100
mouse EL4 tumour homogenate,"0 h, together with: protease inhibitor mix",100
mouse intestinal homogenate,"0.05 h, no inhibitor",0.288
mouse intestinal homogenate,"1 h, together with: aprotinin 0.8 µM",5.58
mouse intestinal homogenate,"0.05 h, together with: E64 10 µM",0.297
mouse intestinal homogenate,"0 h, together with: aprotinin 0.8 µM",100
"EL4 tumour homogenate, mouse","0 h, together with: leupeptin 100 µM",100
mouse EL4 tumour homogenate,"0 h, no inhibitor",100
mouse intestinal homogenate,"0 h, together with: leupeptin 100 µM",100
mouse intestinal homogenate,"0.05 h, together with: protease inhibitor cocktail",90

# Excerpt of the above (study 4):
system,setting,remaining compound [%]
mouse EL4 tumour homogenate,"0 h, no inhibitor",100
mouse intestinal homogenate,"0.05 h, together with: bestatin 10 µM",1.4
"EL4 tumour homogenate, mouse","0 h, together with: leupeptin 100 µM",100
"mouse, EL4 tumour homogenate","0.05 h, together with: pepstatin A 1.0 µM",0.16
mouse EL4 tumour homogenate,"0 h, together with: protease inhibitor mix",100
mouse intestinal homogenate,"0.05 h, together with: protease inhibitor cocktail",90
mouse intestinal homogenate,"0.05 h, no inhibitor",0.288
mouse intestinal homogenate,"0.05 h, together with: E64 10 µM",0.297
mouse intestinal homogenate,"0 h, together with: aprotinin 0.8 µM",100
